Experimental data gathered from unrelated publications.
± marks the error that the study gave.
Sequence of UniProt Q06520 (whole entry, looked up): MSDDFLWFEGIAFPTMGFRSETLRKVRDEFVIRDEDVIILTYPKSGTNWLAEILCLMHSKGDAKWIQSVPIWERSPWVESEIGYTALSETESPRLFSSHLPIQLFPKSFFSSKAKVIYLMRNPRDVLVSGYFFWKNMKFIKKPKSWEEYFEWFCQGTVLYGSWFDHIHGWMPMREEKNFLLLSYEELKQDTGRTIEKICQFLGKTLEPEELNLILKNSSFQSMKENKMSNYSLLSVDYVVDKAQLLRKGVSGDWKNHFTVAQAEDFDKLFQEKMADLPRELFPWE

| Compound | tested on | test | system | setting | how to read | measurement | value |
| --- | --- | --- | --- | --- | --- | --- | --- |
| C[C@]12CC[C@H](O)CC1CCC1C2[C@H](O)C(=O)[C@]2(C)[C@@H](c3ccc(=O)oc3)CC[C@]12O (stereo partly shown) | SULT2A1 (Homo sapiens, UniProt Q06520) | sulfation, substrate | human kidney cytosol | pH 7.4 | baseline: intestine cytosol over kidney cytosol | activity ratio | 8.7 fold |
| COc1ccc(CNc2nc(N3CCC[C@H]3CO)ncc2C(=O)NNC(=O)c2cnc(N3CCC[C@H]3CO)nc2NCc2ccc(OC)c(Cl)c2)cc1Cl | Salmonella typhimurium |  | TA1535 | 62.5 µg/plate, 48 h |  | revertant count | 33 ± 2 |
| N=C(N)NCCC[C@@H]1NC(=O)[C@H](CCCCNC(=O)CNC(=O)CNC(=O)CNC(=O)CC[C@H](NC(=O)CCOCCOCCOCCOCCNC(=O)CC[C@H](NC(=O)CN2CCN(CC(=O)O)CCN(CC(=O)O)CCN(CC(=O)O)CC2)C(=O)NCCOCCOCCOCCOCCC(=O)N[C@@H](CCC(=O)NCC(=O)NCC(=O)NCC(=O)NCCCC[C@@H]2NC(=O)[C@@H](Cc3ccccc3)NC(=O)[C@H](CC(=O)O)NC(=O)CNC(=O)[C@H](CCCNC(=N)N)NC2=O)C(=O)NCC(=O)NCC(=O)NCC(=O)NCCCC[C@@H]2NC(=O)[C@@H](Cc3ccccc3)NC(=O)[C@H](CC(=O)O)NC(=O)CNC(=O)[C@H](CCCNC(=N)N)NC2=O)C(=O)NCC(=O)NCC(=O)NCC(=O)NCCCC[C@@H]2NC(=O)[C@@H](Cc3ccccc3)NC(=O)[C@H](CC(=O)O)NC(=O)CNC(=O)[C@H](CCCNC(=N)N)NC2=O)NC(=O)[C@@H](Cc2ccccc2)NC(=O)[C@H](CC(=O)O)NC(=O)CNC1=O [indium-111 labelled] |  |  | female athymic nude mice, intestine | intravenous, 3 µCi, 72 h, U-87 MG glioma xenograft |  | tissue uptake | 1.22 ± 0.61 %ID/g |
| CCCC[C@H](NC(=O)CNC(=O)CNC(=O)c1ccc(NN)nc1)C(=O)N[C@H]1CC(=O)NCCCC[C@@H](C(N)=O)NC(=O)[C@H](Cc2c[nH]c3ccccc23)NC(=O)[C@H](CCCNC(=N)N)NC(=O)[C@@H](Cc2ccccc2)NC(=O)[C@H](Cc2c[nH]cn2)NC1=O [technetium-99m labelled] |  |  | C57 mouse, B16/F1 melanoma, kidneys | 2 h, together with: NDP-MSH 6.07 nmol blockade |  | uptake | 7.67 ± 1.99 %ID/g |
| COc1cc(C(=O)NCCOCCOCCOCCNC(=O)c2ccc([18F])nc2)ccc1NC(=O)C1NC(CC(C)(C)C)C(C#N)(c2ccc(Cl)cc2F)C1c1cccc(Cl)c1F (stereo not shown) | SJSA-1 tumour model |  | host not given, tumour | 2 h, tumour-bearing |  | tracer uptake | 0.65 %ID/g |
| COc1ccc(CNc2nc(N3CCC[C@H]3CO)ncc2C(=O)NN)cc1Cl | Salmonella typhimurium |  | TA102 | 1000 µg/plate, together with: rat liver S9 |  | revertant count | 266 ± 12 |
| CN(C)CC1CCCCC1(O)c1cccc(O)c1 (stereo not shown) | Caco-2 TC7 |  |  | 3 h, pH 7.4, range over concentrations |  | efflux ratio | 0.9 to 1.1 |
| CC[C@H](C)C(=O)N1CCC(NC(=O)Nc2ccc(OC(F)(F)F)c(F)c2)CC1 |  |  | healthy volunteers | oral, 24 mg single dose, 14 (unit not given) |  | subjects with any TEAE | 66.7% |
| CN[C@](C)(C[18F])C(=O)O | DU-145 tumour model |  | host not given, muscle | 15 min, tumour-bearing |  | tracer uptake | 1.6 %ID/g |
| CCC(=O)N(C)c1ccc(Cl)c(Cl)c1 | Salmonella typhimurium | Ames test | TA98 | 0.05 mg/plate, with rat liver S9 |  | revertants | 13 ± 3.1 revertants/plate |
| N=C(N)NCCC[C@@H]1NC(=O)[C@H](CCCCNC(=O)CCOCCOCCOCCOCCNC(=O)CN2CCN(CC(=O)O)CCN(CC(=O)O)CCN(CC(=O)O)CC2)NC(=O)[C@@H](Cc2ccccc2)NC(=O)[C@H](CC(=O)O)NC(=O)CNC1=O [indium-111 labelled] |  |  | female athymic nude mice, brain | intravenous, 3 µCi, 1 h, U-87 MG glioma xenograft |  | tissue uptake | 0.08 ± 0.02 %ID/g |
| CSCC[C@@H]1NC(=O)[C@@H]2CSSC[C@H](NC(=O)[C@H](CO)NC(=O)[C@H](C)N)C(=O)N[C@@H](CCCNC(=N)N)C(=O)N[C@@H]([C@@H](C)O)C(=O)N3CCC[C@H]3C(=O)N[C@@H](CCCCN)C(=O)N[C@@H](CC(=O)O)C(=O)N[C@H]3CSSC[C@H](NC(=O)[C@H](CCCCN)NC(=O)[C@H](CCCNC(=N)N)NC(=O)[C@H](CC(N)=O)NC1=O)C(=O)N[C@@H](CCCCN)C(=O)N[C@H]1CSSC[C@H](NC(=O)[C@@H]4CCCN4C(=O)[C@H](CC(=O)O)NC(=O)[C@H](C)NC3=O)C(=O)N[C@@H](C)C(=O)N[C@@H](CCCCN)C(=O)N[C@@H](CCC(=O)O)C(=O)N[C@@H]([C@@H](C)O)C(=O)NCC(=O)N[C@@H](CSSC[C@@H](C(N)=O)NC(=O)[C@H](CCCNC(=N)N)NC(=O)[C@H](CC(N)=O)NC1=O)C(=O)N1CCC[C@H]1C(=O)N[C@@H](Cc1ccc(O)cc1)C(=O)NCC(=O)N[C@@H](CCCCN)C(=O)N2 |  |  | DA rat, pristane-induced arthritis, serum | subcutaneous, 0.1 mg/kg once weekly, 21 days |  | blood urea nitrogen | 13.6 mg/dL |
| C[C@@](O)(C(F)F)[C@H](NC(=O)c1ccc(C#CC#CC2CC2)cc1)C(=O)NO |  |  | CD-1 mouse | oral, 40 mg/kg, not fasted |  | terminal half-life | 3 ± 0.3 h |

Repeated from above:
| Compound | tested on | test | system | setting | how to read | measurement | value |
| --- | --- | --- | --- | --- | --- | --- | --- |
| COc1cc(C(=O)NCCOCCOCCOCCNC(=O)c2ccc([18F])nc2)ccc1NC(=O)C1NC(CC(C)(C)C)C(C#N)(c2ccc(Cl)cc2F)C1c1cccc(Cl)c1F (stereo not shown) | SJSA-1 tumour model |  | host not given, tumour | 2 h, tumour-bearing |  | tracer uptake | 0.65 %ID/g |
| CSCC[C@@H]1NC(=O)[C@@H]2CSSC[C@H](NC(=O)[C@H](CO)NC(=O)[C@H](C)N)C(=O)N[C@@H](CCCNC(=N)N)C(=O)N[C@@H]([C@@H](C)O)C(=O)N3CCC[C@H]3C(=O)N[C@@H](CCCCN)C(=O)N[C@@H](CC(=O)O)C(=O)N[C@H]3CSSC[C@H](NC(=O)[C@H](CCCCN)NC(=O)[C@H](CCCNC(=N)N)NC(=O)[C@H](CC(N)=O)NC1=O)C(=O)N[C@@H](CCCCN)C(=O)N[C@H]1CSSC[C@H](NC(=O)[C@@H]4CCCN4C(=O)[C@H](CC(=O)O)NC(=O)[C@H](C)NC3=O)C(=O)N[C@@H](C)C(=O)N[C@@H](CCCCN)C(=O)N[C@@H](CCC(=O)O)C(=O)N[C@@H]([C@@H](C)O)C(=O)NCC(=O)N[C@@H](CSSC[C@@H](C(N)=O)NC(=O)[C@H](CCCNC(=N)N)NC(=O)[C@H](CC(N)=O)NC1=O)C(=O)N1CCC[C@H]1C(=O)N[C@@H](Cc1ccc(O)cc1)C(=O)NCC(=O)N[C@@H](CCCCN)C(=O)N2 |  |  | DA rat, pristane-induced arthritis, serum | subcutaneous, 0.1 mg/kg once weekly, 21 days |  | blood urea nitrogen | 13.6 mg/dL |
